Experimental data of several laboratories.
Each line is one published result; not all experiments were run side by side. Values joined by “and” are separate records of one study, mostly repeats; a detail may differ. ± marks the error that the study gave. Converted amounts (≈) assume the structure as drawn.
UniProt P17405, sequence (whole entry, looked up): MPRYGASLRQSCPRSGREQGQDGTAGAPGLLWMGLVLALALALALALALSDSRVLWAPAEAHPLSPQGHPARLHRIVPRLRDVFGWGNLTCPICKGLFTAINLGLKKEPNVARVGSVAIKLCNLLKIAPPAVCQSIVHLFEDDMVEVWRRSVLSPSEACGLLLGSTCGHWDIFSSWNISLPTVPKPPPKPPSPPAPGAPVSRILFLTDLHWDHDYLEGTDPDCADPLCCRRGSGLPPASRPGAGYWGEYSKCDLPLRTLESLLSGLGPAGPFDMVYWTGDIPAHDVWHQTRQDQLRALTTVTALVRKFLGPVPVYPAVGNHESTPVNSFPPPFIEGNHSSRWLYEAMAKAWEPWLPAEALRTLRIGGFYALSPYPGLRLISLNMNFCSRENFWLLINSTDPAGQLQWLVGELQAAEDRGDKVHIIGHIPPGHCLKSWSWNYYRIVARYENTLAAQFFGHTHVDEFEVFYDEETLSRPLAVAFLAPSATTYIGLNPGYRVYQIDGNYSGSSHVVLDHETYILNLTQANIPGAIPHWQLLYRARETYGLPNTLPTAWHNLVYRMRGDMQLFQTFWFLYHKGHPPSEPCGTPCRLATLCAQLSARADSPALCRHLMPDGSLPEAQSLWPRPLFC
UniProt Q96PY6, sequence (whole entry, looked up): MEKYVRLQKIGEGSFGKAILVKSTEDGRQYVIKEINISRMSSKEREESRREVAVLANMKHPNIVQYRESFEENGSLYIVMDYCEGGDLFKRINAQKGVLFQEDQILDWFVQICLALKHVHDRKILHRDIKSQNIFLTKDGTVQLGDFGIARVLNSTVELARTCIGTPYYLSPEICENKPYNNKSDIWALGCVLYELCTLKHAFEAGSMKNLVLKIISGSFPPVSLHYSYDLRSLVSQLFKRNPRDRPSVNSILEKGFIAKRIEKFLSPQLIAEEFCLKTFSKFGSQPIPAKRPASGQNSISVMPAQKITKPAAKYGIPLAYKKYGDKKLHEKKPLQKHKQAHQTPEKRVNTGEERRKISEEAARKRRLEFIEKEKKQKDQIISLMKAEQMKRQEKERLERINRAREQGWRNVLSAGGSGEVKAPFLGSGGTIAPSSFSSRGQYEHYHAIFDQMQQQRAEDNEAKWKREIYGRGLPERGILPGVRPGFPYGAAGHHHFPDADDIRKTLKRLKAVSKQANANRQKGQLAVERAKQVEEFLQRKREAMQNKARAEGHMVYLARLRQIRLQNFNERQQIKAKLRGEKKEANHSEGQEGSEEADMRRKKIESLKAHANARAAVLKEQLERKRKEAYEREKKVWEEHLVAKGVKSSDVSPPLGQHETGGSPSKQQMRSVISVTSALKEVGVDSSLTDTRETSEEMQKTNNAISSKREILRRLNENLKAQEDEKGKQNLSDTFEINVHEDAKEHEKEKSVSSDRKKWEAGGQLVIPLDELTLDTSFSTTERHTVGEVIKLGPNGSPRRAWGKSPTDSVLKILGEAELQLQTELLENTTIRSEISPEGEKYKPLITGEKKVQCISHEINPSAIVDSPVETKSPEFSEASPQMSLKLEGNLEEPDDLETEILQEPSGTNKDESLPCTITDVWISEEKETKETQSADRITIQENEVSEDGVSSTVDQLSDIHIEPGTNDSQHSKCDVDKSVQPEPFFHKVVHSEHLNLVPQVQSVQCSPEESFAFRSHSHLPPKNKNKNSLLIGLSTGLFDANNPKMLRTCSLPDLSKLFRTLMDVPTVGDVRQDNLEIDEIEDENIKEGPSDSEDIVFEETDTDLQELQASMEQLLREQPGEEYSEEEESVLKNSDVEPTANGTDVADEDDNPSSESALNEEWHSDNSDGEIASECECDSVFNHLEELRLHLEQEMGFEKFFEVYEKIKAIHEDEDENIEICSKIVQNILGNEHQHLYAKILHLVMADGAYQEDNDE

SMILES | target or system | assay | test system | conditions | scale | endpoint | value
C[C@H]1CN(c2n[nH]c3nc(N[C@H]4CC[C@H](NS(=O)(=O)CCC(F)(F)F)CC4)ncc23)CCO1 | NEK1 (Homo sapiens, UniProt Q96PY6) | inhibitor, Kinobeads competition profiling | – | 0.032 µM | reference: vehicle | relative abundance | 0.99
CCOC(=O)c1ccc(NC(=O)c2sc3nc(C)cc(C(F)(F)F)c3c2N)cc1 | MDA-MB-231 | MTT | – | 100 µM, 72 h | – | viability | 60 ± 6%
O=C(Nc1cccnn1)N1CCC(=Cc2cccc(Oc3ccc(C(F)(F)F)cn3)c2)CC1 | COS cells expressing human FAAH | – | – | 100 nM, 3 h | – | supernatant concentration | 64.4 ± 1.7 nM
Oc1ccc(C2(c3ccc(O)cc3)c3ccccc3-c3ccccc32)cc1 | HepG2 spheroids | annexin V-FITC/PI flow cytometry | – | 0.1 µM, 24 h | – | necrotic cells | 4.66 ± 0.8%
COc1cc(CCC[P+](c2ccccc2)(c2ccccc2)c2ccccc2)c(OC)c2c1OCO2.[I-] | M14 | SRB | – | – | – | GI50 | -5.75 log M
O=C(Nc1cccnn1)N1CCC(=Cc2cccc(Oc3ccc(C(F)(F)F)cn3)c2)CC1 | COS cells expressing human FAAH | – | cell lysate | 100 nM, 24 h | – | intracellular concentration | 34 ± 2.3 nM
N#Cc1c(C(F)(F)F)cc(-c2ccccc2)nc1SCC(=O)Nc1cccnc1 | MDA-MB-231 | MTT | – | 100 µM, 72 h | – | viability | 42 ± 10%
CC(C)c1ccc(C(=O)c2c(N)c(C(N)=O)c3ccccn23)cc1 | THP-1-derived macrophages | – | – | 10 µM, 24 h | – | viability | 95.5% and 100%
O=C(Nc1cnccc1Cl)N1CCN(Cc2ccc3c(c2)OC(F)(F)O3)CC1 | COS cells expressing human FAAH | – | COS cell culture supernatant | 100 nM, 24 h | – | concentration | 93.5 ± 3.5 nM
O=S(=O)(c1ccc(O)cc1)c1ccc(O)cc1 | HepG2 spheroids, dissociated | annexin V-FITC/PI flow cytometry | – | 1 µM, 24 h | – | early apoptotic cells | 15.7 ± 2.36%
O=c1ccc2ccccc2o1 | NHEK | mitochondrial reserve capacity, Seahorse | – | 6 h | – | point of departure | 592 µM
COc1ccc(NC(=O)CSc2nc(-c3ccccc3)cc(C)c2C#N)cc1 | MDA-MB-231 | MTT | – | 100 µM, 72 h | – | viability | 40 ± 7%
CC(c1ccccc1)(c1ccc(O)cc1)c1ccc(O)cc1 | HepG2 spheroids, dissociated | annexin V-FITC/PI flow cytometry | – | 40 µM, 24 h | – | viable cells | 71 ± 11.8%
CN(C(=O)n1cnc(-c2ccc[n+]([O-])c2)c1)C1CCCCC1 | COS cells expressing human FAAH | – | cell lysate | 100 nM, 0 h, quantification limit 5 nM | – | compound concentration | not detected
CC[C@@H](C)[C@H]1NC(=O)[C@@H]2CCCN2C(=O)[C@H](CO)NC(=O)[C@H](CC(C)C)NC(=O)[C@H](C(C)C)NC(=O)CN(C)C(=O)[C@@H](Cc2ccc(O)cc2)NC(=O)[C@@H](Cc2ccc(O)cc2)NC(=O)CSC[C@@H](C(=O)O)NC(=O)[C@@H](CC(C)C)NC1=O | MDCK-MDR1 | – | HBSS, 0.25% BSA | 2 h | – | Papp A to B | 0.2 ×10⁻⁶ cm/s
Cc1cc(-c2ccccc2)c2c(N)c(C(=O)Nc3ccon3)sc2n1 | MDA-MB-231 | MTT | – | 100 µM, 72 h | – | viability | 49 ± 5%
CNC(=O)c1c(N(C)N=O)ncn1C | Escherichia coli | mutagenicity, Ames plate incorporation | WP2 uvrA pKM101 | 1500 µg/plate, without S9, methanol | – | revertant colonies per plate | 129 ± 15
Cc1cccc(NC(=O)c2sc3nc(-c4ccccc4)cc(C(F)(F)F)c3c2N)n1 | MDA-MB-231 | MTT | – | 100 µM, 72 h | – | viability | 20 ± 4%
COc1cc(Nc2ncc(F)c(Nc3ccc4c(n3)NC(=O)C(C)(C)O4)n2)cc(OC)c1OC | SMPD1 (Homo sapiens, UniProt P17405) | enzyme activity, inhibitor | – | – | – | IC50 | > 10 µM
CC[C@H](C)[C@@H]1NC(=O)[C@@H]2CCCN2C(=O)[C@H](CC(C)C)NC(=O)[C@H](CC(C)C)NC(=O)CNC(=O)[C@@H](NC(=O)[C@@H](NC(=O)[C@H](CC(=O)O)NC(=O)CNC(=O)[C@@H](NC(=O)[C@H](C)NC(=O)CNC(=O)[C@H](CCCCN)NC(=O)[C@H](CC(C)C)NC(=O)[C@H](CC(C)C)NC(=O)[C@H](CCCCN)NC(=O)CNC(=O)[C@@H](NC(=O)[C@@H](N)CC(C)C)C(C)C)C(C)C)C(C)C)CSSC[C@@H](C(=O)O)NC1=O | – | RNA-seq, item: Cd24a | mouse, traumatic brain injury model, frontal cortex and hippocampus | dose not given | reference: TBI alone | log2 fold change | -1.91
CC(C)C[C@H](NC(=O)C[C@H](O)[C@H](CC(C)C)NC(=O)[C@H](Cc1c[nH]cn1)NC(=O)CNC(=O)[C@@H](NC(=O)[C@H](C)NC(=O)[C@H](Cc1c[nH]c2ccccc12)NC(=O)[C@H](CCC(N)=O)NC(=O)[C@@H](Cc1ccccc1)NC(=O)CCNC(=O)CCSc1nnc(NCCC(=O)NCCC(=O)NCCCC[C@H](NC(=O)N[C@@H](CCC(=O)O)C(=O)O)C(=O)O)c2c1CCC1C(CC2)C1COC(=O)NCCNC(=O)CC[C@H](C(=O)O)N1CCN(CC(=O)O)CCN(CC(=O)O)CC1)C(C)C)C(N)=O (stereo partly drawn) [gallium-68 labelled] | – | – | athymic NMRI nude mouse, colon | intravenous, 533 pmol, 2 h | – | tissue uptake | 0.6 %ID/g
C[C@@H](O)[C@@H](CO)NC(=O)[C@@H](CCCNC(=N)N)NC(=O)[C@@H]1CCCN1C(=O)[C@@H]1CSSC[C@H](NC(=O)[C@H](Cc2ccccc2)NC(=O)CN2CCN(CC(=O)O)CCN(CC(=O)O)CCN(CC(=O)O)CC2)C(=O)N[C@@H](Cc2ccc(O)cc2)C(=O)N[C@@H](Cc2ccccc2)C(=O)N[C@@H](CCC(N)=O)C(=O)N[C@@H](CC(N)=O)C(=O)N1 [gallium-68 labelled] | – | – | Wistar rat, heart | intravenous, 8 MBq, 30 min, group mean | – | tissue uptake | 0.24 %ID/g
CC(C)CC(=O)OC[C@H]1O[C@@](C#N)(c2ccc3c(N)ncnn23)[C@H](O)[C@@H]1O | Caco-2 | bidirectional permeability | – | 0.9 µM, 120 min | apical to basolateral | recovery | 105%
CC[C@H](C)[C@H](NC(=O)[C@H](C)NC(=O)[C@H](CCCCN)NC(=O)[C@H](CC(C)C)NC(=O)[C@H](C)NC(=O)[C@@H](NC(=O)[C@H](Cc1c[nH]cn1)NC(=O)[C@H](CC(C)C)NC(=O)[C@@H](NC(=O)[C@@H](NC(=O)[C@H](CCCCN)NC(=O)[C@H](C)NC(=O)[C@H](C)NC(=O)[C@H](CO)NC(=O)[C@H](CCCCN)NC(=O)[C@H](Cc1ccccc1)NC(=O)[C@@H](NC(=O)[C@H](CCCCN)NC(=O)[C@H](CC(C)C)NC(=O)[C@H](Cc1ccccc1)NC(=O)[C@H](CO)NC(=O)[C@H](CCCCN)NC(=O)[C@H](Cc1c[nH]c2ccccc12)NC(=O)[C@H](CCCCN)NC(C)=O)[C@@H](C)O)[C@@H](C)O)C(C)C)[C@@H](C)O)C(=O)N[C@@H](CO)C(=O)N[C@@H](CO)C(N)=O | Klebsiella pneumoniae | – | – | geometric mean of 80 strains | – | MIC | 6.22 µg/mL (≈ 2.12 µM)
